Results of several laboratories.
Each line is one published result; not all experiments were run side by side. “And” joins repeats or separate records; there may be more than shown. Numbers after ± are the reported error.

Compound = C[N+](C)(C)CC(CC(=O)[O-])OC(=O)CCC(=O)Nc1ccn([C@@H]2O[C@H](CO)[C@@H](O)C2(F)F)c(=O)n1 (stereo partly drawn); system = THU-treated rat plasma; setting = 15.00 ng/mL, 1 h, 20 °C, bench-top stability, low QC; endpoint = measured concentration; value = 15.5 ± 1.3 ng/mL
Compound = CC(C)[C@H](NC(=O)CNC(=O)[C@H](CCC(N)=O)NC(=O)[C@H](C)N)C(=O)O; system = human, endotoxaemia, plasma; setting = intravenous, lower dose groups, estimate; endpoint = t1/2; value = < 12 min
Compound = CN(C)c1cc(CN2CCCCC2)c(O)c2c1C[C@H]1C[C@H]3[C@H](N(C)C)C(O)=C(C(N)=O)C(=O)[C@@]3(O)C(O)=C1C2=O; system = cynomolgus monkey, plasma; setting = oral, 5 mg/kg; endpoint = AUC; value = 1500 ng·h/mL
Compound = COc1cc(-c2nc3ccccc3s2)cc(CN2CCN(CC(=O)OC(C)(C)C)CCN(CC(=O)OC(C)(C)C)CC2)c1O; test = UV-Vis pH titration; setting = 25 °C, ionic strength 0.1 M NaCl; endpoint = pKa3; value = 8.16
Compound = C[C@H](CN(C)Cc1ccccc1)NC(=O)c1ccc(-c2noc(C(F)(F)[18F])n2)cc1; test = PET imaging; system = female Sprague-Dawley rats, brain; setting = intravenous, 10 min; endpoint = tissue uptake; value = 2.4 ± 0.44 SUV
Compound = C=C(C)C(=O)Nc1ccc(-c2c(-c3ccc(Oc4nccc(C)n4)cc3)c3c(N)ncnc3n2C)cc1; system = cynomolgus monkey, plasma; setting = oral; endpoint = bioavailability; value = 19%
Compound = O=c1nc(NO)ccn1[C@@H]1O[C@H](CO)[C@@H](O)[C@H]1O; test = refers to: CYP3A4; system = normal rat, liver; setting = oral, 80 mg/kg twice daily, 5 days; how to read = reference: untreated rats; endpoint = protein level; value = 0.4 fold
Compound = CCNC(=O)N1CCC(Oc2nc3c(c(=O)n(C)c(=O)n3C)n2Cc2cccc(C)c2)CC1; test = metabolic stability; system = rat, liver microsomes; endpoint = half-life; value = 3 min
Compound = COc1cc(-c2nc3ccccc3s2)cc(CN(Cc2ccccn2)Cc2ccccn2)c1O; test = UV-vis spectrophotometric titration; system = MeOH-water, MeOH up to 20%; setting = 50 µM, 0.1 M NaCl, HL to L-; endpoint = pKa4; value = 10.4
Compound = O=C(O)CN1CCNCCNCCN(C(C(=O)O)c2ccc(C(=O)O)cc2)CC1 (stereo not drawn); test = pH-potentiometric titration; setting = 25 °C, 0.1 M KCl; endpoint = sum log K3 + log K4; value = 7.9
Compound = COc1c2c(cc3oc(C)cc(=O)c13)O[C@H](C(C)(C)O[C@@H]1O[C@H](CO)[C@@H](O)[C@H](O)[C@H]1O)C2; system = simulated intestinal fluid with pancreatin; setting = 2 h, pH 6.8, 37 °C; endpoint = transformation rate; value = 33.4% and ~33.4%
Compound = Cc1cc(C(=O)N[C@@H](CO)CC(C)C)ccc1CO; test = LC-MS; system = Sprague-Dawley rat, both sexes, rat liver microsomes; setting = 10 µM of parent drug, 20 min, pH 7.4, together with: NADPH; how to read = reference: parent drug at time zero; endpoint = metabolite peak area; value = 2.7%
Compound = CC(C)c1cnc(-c2cc(Cl)ccc2F)cc1Nc1ccncc1C(=O)NC(CO)CO; test = monotherapy, refers to: nausea; system = human patients; setting = oral, dose not given, grade 1, phase I A; endpoint = patients with treatment-related adverse event; value = 9.5%
Compound = O=C([O-])CN1CCN(CC(=O)[O-])CCN(CC(=O)NCC2CCC(C(=O)NC(Cc3ccc4ccccc4c3)C(=O)NCCCCC(NC(=O)NC(CCC(=O)O)C(=O)O)C(=O)O)CC2)CCN(CC(=O)[O-])CC1.[44Sc+3] (stereo not drawn); test = transmetallation stability; setting = 2 h, 37 °C, together with: Fe3+ 10 mM; endpoint = intact complex; value = 98 ± 0.8%
Compound = COCCOCCOCCOCCOCCOCCOCCOCCC(=O)NCCCc1cc2cc3nc(cc4[nH]c(cc5nc(c(OC)c1[nH]2)C(=O)C5(C)C)cc4CCc1ccc(C(=O)O)cc1)CC3(C)C; system = DMF; setting = room temperature; endpoint = Qy emission FWHM; value = 26 nm
Compound = CC1=CC(C)(C)N=C2C=CC(=O)C=C12; test = LC-MS/MS; system = Holstein cattle, subcutaneous fat; setting = oral in feed, 50 mg/kg complete feed ethoxyquin, 42 days; endpoint = highest tissue residue; value = 14.1 ng/g
Compound = CCCCCc1cn(CCCCCCCCCCCOP(=O)([O-])OCC[N+](C)(C)C)nn1; test = haemolysis; system = human; setting = 100 µM, 1 h; endpoint = haemolysis; value = 0.5%
Compound = OCc1cn(Cc2ccc(-c3noc(-c4ccc(OCC[18F])c(C(F)(F)F)c4)n3)cc2)nn1; system = rat, liver; setting = intravenous, 2 h; endpoint = tracer uptake; value = 3.66 %ID/g
Compound = CNc1cc(OC)c(Nc2nccc(-c3cn(C4CC4)c4ccccc34)n2)cc1NC(=O)CCSCC(N)C(=O)O (stereo not drawn); test = radio-HPLC, co-eluting peaks pooled; system = human, urine; setting = dose not given, 0 to 96 h, sample holds 4.16% dose; how to read = reference: sample radioactivity; endpoint = share of radioactivity; value = 1.7%
Compound = NC12CNCCNCC(NCc3ccc(CNC(=O)CCCC(=O)NCc4ccc(-c5nncnn5)cc4)cc3)(CNCCNC1)CNCCNC2.[64Cu+2]; test = OLINDA dosimetry; system = gallbladder wall; setting = pretargeting, 48-h interval; endpoint = mean absorbed dose; value = 0.0368 rad/mCi
Compound = CCN(CC)c1ccc2c(-c3ccc(S(=O)(=O)NCCNC(=O)CN4CCN(CC(=O)[O-])CCN(CC(=O)O)CCN(CC(=O)[O-])CC4)cc3S(=O)(=O)[O-])c3ccc(=[N+](CC)CC)cc-3oc2c1.[64Cu+2]; test = microPET imaging; system = athymic nude mice, U-87 MG glioma xenograft; setting = 250 µCi, 4 h post-injection; endpoint = tumour uptake; value = 9.03 ± 0.95 %ID/g
Compound = CCCC[C@@H]1NC(=O)[C@@H](NC(=O)[C@H](CCC(=O)O)NC(=O)CNC(=O)CN2CCN(CC(=O)O)CCN(CC(=O)O)CCN(CC(=O)O)CC2)CCCCNC(=O)C[C@@H](C(N)=O)NC(=O)[C@H](C(C)C)NC(=O)[C@@H]2CCCN2C(=O)[C@H](CCCNC(=N)N)NC(=O)CNC(=O)[C@H](Cc2c[nH]c3ccccc23)NC(=O)[C@H](CCCNC(=N)N)NC(=O)[C@@H](Cc2ccccc2)NC(=O)[C@H](Cc2c[nH]cn2)NC(=O)[C@H](CCC(=O)O)NC1=O [gallium-67 labelled]; system = C57 mice, B16/F10 lung metastases, brain; setting = intravenous, 0.037 MBq/mouse, 2 h; endpoint = tissue uptake; value = 0.03 ± 0.02 %ID/g
Compound = CSCC(NC(=O)c1cc(Cl)ccc1Cl)C(=O)NC(CC(C)C)B(O)O (stereo not drawn); system = Sprague-Dawley rat, both sexes; setting = oral, 0.30 mg/kg of prodrug, 96 h; how to read = reference: dose; endpoint = cumulative faecal excretion; value = 2.03%
Compound = COCCOCCOCCOc1ccc(/C=C/c2c(I)c(C)c3n2[B-](F)(F)[N+]2=C(C)C(I)=C(C)C2=C3c2cc(OC)cc(OC)c2)cc1; system = DMSO; endpoint = Stokes shift; value = 613 cm⁻¹
Compound = CC(C)[C@H](NC(=O)CNC(=O)[C@H](CCC(N)=O)NC(=O)[C@H](C)N)C(=O)O; test = LC-MS/MS; system = human, plasma; setting = intravenous, 30 mg/kg three times daily, day 3, first dose, 10 min infusion, geometric mean; endpoint = AUC(0-last); value = 572 ng·h/mL
Compound = CC(C)C[C@@H](N)C(=O)N[C@H](CC(=O)O)C(=O)N[C@@H](C(=O)N[C@H](Cc1ccccc1)C(=O)N[C@H](CC(C)C)C(=O)N[C@H](Cc1ccc(O)cc1)C(=O)N[C@H](CO)C(=O)N[C@H](CCC(=O)O)C(=O)O)C(C)C; system = 4T1 and MC-38 tumour mice; setting = dose not given; endpoint = haemoglobin level; value = no effect
Compound = NCC(=O)N1CCC[C@H]1C(=O)N1C[C@H](O)C[C@H]1C(=O)O; test = potentiometric titration; system = water; setting = 25 °C, 0.15 mol/dm3 NaCl; endpoint = pKa3; value = 8.42
Compound = Cc1ccc(C(C)C)cc1.[C-]#[O+].[C-]#[O+].[C-]#[O+].[Cl-].[Cl-].[Cl-].[Re+].[Ru+2].c1cnc(-c2ncccn2)nc1; test = cyclic voltammetry; system = 0.1 M Na2SO4, gold electrode; setting = scan rate 50 mV/s; endpoint = redox potential; value = -0.701 V vs Ag/AgCl
Compound = N=C(N)NCCC[C@H](NC(=O)COC(=O)[C@H](Cc1ccccc1)NC(=O)OCC1c2ccccc2-c2ccccc21)C(=O)NCC(=O)N[C@@H](CC(=O)O)C(=O)O; test = rheology; setting = 10 mg/mL; how to read = reference: Fmoc-FRGD at half concentration; endpoint = softness ratio; value = ~3
Compound = Cn1c(=O)oc2ccc(-c3ccc(CC(C#N)NC(=O)C4CNCCCO4)c(F)c3)cc21 (stereo not drawn); system = human; setting = oral, 20 mg once daily, TEAE, multiple ascending dose; endpoint = urine WBC positive incidence; value = 0%
